# Experimental data pooled from the literature.
# Every numbered part comes from another study and shows a few of its results, in no order.

# Study 1 — technique: RNA Bind-n-Seq; form: RNA; sample: in vitro; tested at: not given; relative to: input RNA pool; direction: higher = stronger binding
# Target: RING finger protein unkempt homolog, zinc fingers 1-6, GST-SBP tag (UNK, Homo sapiens, UniProt Q9C0B0, residues 30-357)
# UniProt Q9C0B0, sequence (30-357, looked up): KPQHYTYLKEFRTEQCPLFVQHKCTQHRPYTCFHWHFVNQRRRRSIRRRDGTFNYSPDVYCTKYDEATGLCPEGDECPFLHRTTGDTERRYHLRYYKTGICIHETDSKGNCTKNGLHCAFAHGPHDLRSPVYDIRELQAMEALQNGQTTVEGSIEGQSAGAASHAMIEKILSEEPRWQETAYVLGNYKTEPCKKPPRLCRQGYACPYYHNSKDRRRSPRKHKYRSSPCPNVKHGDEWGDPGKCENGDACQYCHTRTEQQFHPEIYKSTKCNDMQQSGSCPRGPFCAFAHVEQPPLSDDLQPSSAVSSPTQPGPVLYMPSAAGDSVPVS
# Setting: RNA with constant flanks, human and mouse sites, ends assumed
Sequence,bound/input enrichment [ratio]
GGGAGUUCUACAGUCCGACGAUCCCAGUUGUAUACAAAUACCUAACAGAGAAAGCAGUAAAAUGGUCACAGCAGGUUGAACGUCAUAGAGAACAUCUCAUUAACUACAUUAUAUUUUUGAGAAUAACACCAUUUCUGCCUAAUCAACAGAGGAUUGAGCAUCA,3.06
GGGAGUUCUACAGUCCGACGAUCGACGAUGAAACAGUUGAUAGCUUAGGCCCCCUGGAAAAAGGACAAGUGAAAAAUGAGGCGCUUAGAGAAUUGAGAGUGGAGCUCAGCAAAAAACACCAAGCUCGAGAACUUGAUGGAUUUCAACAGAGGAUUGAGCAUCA,0.623
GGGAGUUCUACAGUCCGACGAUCUAAAUUGAGGGCACUUGUACCCUCCCUGUGCCCCCAGAAGGUUCUUGGAGAGAAGUGCAAGAAUUUGUGAACACGGCGGUGGAGGGCGGGUGGAUGGCCAUGGGCUGAGCCUCCGUAUCACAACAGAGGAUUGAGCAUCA,0.193
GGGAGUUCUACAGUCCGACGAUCAAGCUAUAAUGAGUUUUUCUAAAUUAAGGGAACUCUGCUACUUCCUUUUUUUUUUUUUUUAAUAGUUGGUCUACAAGUGCGCAUUGGUAGGGUGUCCAGCAGAUGGAUGGGGGCUGAUGGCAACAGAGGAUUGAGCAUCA,1.53
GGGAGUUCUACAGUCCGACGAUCUCGGAGGGCAGUGGCGGGAGCACUACUGGUUGGCGCGCUCGGGAGGAGCAGCCGCCGUCGGUGGCCGAGGGCUACGCCUCGCAGGACGUGUUCAGCGCCACCGAGACCAGUCUAUGGUACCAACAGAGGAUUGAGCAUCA,0.177
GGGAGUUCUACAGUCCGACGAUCCGAAGUGAAACGCUCGGCUGGUCGGCCUUGCUCUCGAUAUCGACCCCCGCAAACUUUACUCCUUAAUAAUCGGCUACGUCCGUUUCGUUGUCGGUAUCGGUCUUCAGCAACCAUGCUGGACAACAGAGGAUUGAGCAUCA,0.151
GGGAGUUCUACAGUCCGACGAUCGGGUCCUUUGCACUUCAGUCGCUCUGGGCAGUGUGCACAUUUAGUCUUUCUGGGCAAUGGUGUUUCCGGCUAAGCUGGUUUUGUUUAAGGAAUUUUCUGUGUUGUCUGCUGGCUCUUGUGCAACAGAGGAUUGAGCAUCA,0.222
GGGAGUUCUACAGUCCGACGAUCCCUCUUUUAAAGCAGGUUGUGUACAACAUUCAGUACACUGAAGGCAUAAACCUUCCACUCUUGAACAAAGCAGCUGCUUUUUAAAAGCGAGAAAAAGGAAAACGGGGCACAGGCCAUUCGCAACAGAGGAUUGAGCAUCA,0.259
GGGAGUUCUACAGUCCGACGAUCGCUAGAGAUCUGUUACACCCUUCCUUGGAGGAGGAGAAGAAAAAACAUAAGAAGAAACGGCUGGUUCAGAGCCCAAAUUCUUACUUCAUGGAUGUGAAAUGUCCAGGUUGCUACAAGAUUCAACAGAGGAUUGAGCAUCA,0.339
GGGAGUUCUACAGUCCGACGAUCUUCCCCAAUCGCUUUUCCAGCCGUCCAAUAACUGGACCUCACAUUGCAUACACAGAGGCUGUCAGCGAUACUCAGAUCAUGCUAAAGUGGACGUACAUUCCAUCAAGUAACAAUAACACUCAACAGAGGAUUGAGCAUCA,0.221
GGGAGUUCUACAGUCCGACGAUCGCCUAGUCUGUGUAAGCAAGAAGUAGGACCAAACUGAGGAAACUACUUGGUCCAUUUAGAUAGCAGUUUAUUCAUACUCAGUGACCCGCAGGCCUCCACCUCUGCUUGAGGGAAGGGCUUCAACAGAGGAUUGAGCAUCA,2.19

# Study 2 — technique: RNA Bind-n-Seq; form: RNA; sample: in vitro; tested at: 200 nM; setting: whole 134-nt RNA, ends assumed; with: 150 mM LiCl; relative to: input library; direction: higher = stronger binding; library: 7-deaza-guanosine replaces G
# Target: Fragile X messenger ribonucleoprotein 1, C-terminal low-complexity region (Fmr1, Mus musculus, UniProt P35922)
Sequence,log2 enrichment
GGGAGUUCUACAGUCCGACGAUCCACAGACAACACGCACCCACACAGACACAGAGGGAAGGGGUUGGGAUGGGGACAGGGUGCACAGCAGGGCGGGGUGGGACCCCAGCCCCUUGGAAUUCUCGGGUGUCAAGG,1.59
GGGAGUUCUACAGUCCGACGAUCGUCCUGUGCUACACAUCGUAUGUACCGAAUCGGGGAGGGGUUUUUUUGGGGUUUGGGGAAAGUAUUAUGUUACGCCGUUCGGAUCUGCACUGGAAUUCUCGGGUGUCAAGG,-0.0512
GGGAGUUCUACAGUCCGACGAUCUGGCCCUGGUGGCAUGCGGGGAGGAAGAGGUGGCCUCAUGGAUCGUGGUGGUCCCGGUGGAAUGUUCAGAGGUGGCCGUGGUGCAGACAGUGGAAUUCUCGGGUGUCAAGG,-1.05
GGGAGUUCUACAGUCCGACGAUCCAAGUCCUGUGCUACACAUCGUAUGUACCGAAUCGGAAAGGAAAAAAAGGUUUGGAAAGUAUUAUGUUACGCCGUUCGGAUCUGCACUUCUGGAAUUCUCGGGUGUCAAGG,-2.51
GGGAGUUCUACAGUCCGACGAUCUGUGCUACACAUCGUAUGUACCGAAUCGGGGUUUUUUUGGGUUUUUUUGGGGUUUUUUUGGGAAAGUAUUAUGUUACGCCGUUCGGAUCUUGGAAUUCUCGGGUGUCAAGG,1.27
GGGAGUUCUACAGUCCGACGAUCUAACUUUGGAGGAGGAUCUGAUGGAUAUGGCAGUGGACGUGGAUUUGGGGAUGGCUAUAAUGGGUAUGGAGGAGGACCUGGAGGUGGCAAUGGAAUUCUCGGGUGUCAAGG,0.391
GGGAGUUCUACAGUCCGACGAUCACCAUGCAGGUGGGCAUCUUUGGGAAGUGGGGCAAGGGGGGGAUAGGGAGGGGGGUAACACUUUGGGAUCAGGUGGUCCCAGGUCGUUUCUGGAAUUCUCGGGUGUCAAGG,1.41
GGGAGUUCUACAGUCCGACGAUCAGUCCUGUGCUACACAUCGUAUGUACCGAAUCGGCCCCCGGGCCCCCGGGGCCCCCGGAAAGUAUUAUGUUACGCCGUUCGGAUCUGCACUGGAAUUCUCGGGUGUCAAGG,-3.08

# Study 3 — technique: RNA Bind-n-Seq; form: RNA; sample: in vitro; tested at: 365 nM; relative to: no-protein control; direction: higher = stronger binding
# Target: RNA binding protein fox-1 homolog 2, RRM domain, GST-SBP tag (RBFOX2, Homo sapiens, UniProt O43251-10, residues 100-194)
# Setting: natural RNA segment, single round, ends assumed
# Target sequence (chain): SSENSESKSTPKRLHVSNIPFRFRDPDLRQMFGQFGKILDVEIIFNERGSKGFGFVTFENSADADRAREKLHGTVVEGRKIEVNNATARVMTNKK
Sequence,RBNS enrichment (R)
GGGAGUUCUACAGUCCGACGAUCCCUUUUUUAAAAACGGGUUUGAACUCCUGUUUAGCCAAGAGUGAUCUUGAGCUGGUCUCCUGCCUCCACCCCCUGAGUGCUGGGGUUACAGGUGAUAGCUGGUCUCCUGCUGGAAUUCUCGGGUGCCAA,0.243
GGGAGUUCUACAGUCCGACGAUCCUAGCUAUCACUUCCUGAGUGUCUCAUGUAGCCACUCAGGCUCCCAGGAGUUUCCUGAGGUAGGUUAGUAGGGUCACGUGAAUGCCUCACUAUGACAUGACUUGAGUCCAUGGAAUUCUCGGGUGCCAA,0.278
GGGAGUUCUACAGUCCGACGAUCGUAUGUCAUCCACUGCUUGGGGAAUUUUCCUCAGGUACCUACACACCCUGAUAUUUGAAACCAAAACUCACUGUUCUGCCUCAAUUUGUAUUUUAUUUUGAAAUAAACAUUGGAAUUCUCGGGUGCCAA,0.453
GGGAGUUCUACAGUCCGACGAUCCUCAAAUAAGCAGUAGUUUUUUUGUUGUUUAUUUUUAAUGAAACAGCUGUGUUAAGGCGCUGCUUCAGAUGCAAGUUCACCUGGAAAUACUGGUCAGCGGGCAGCACGUCUGGAAUUCUCGGGUGCCAA,4.4
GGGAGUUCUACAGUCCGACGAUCUACCCUUUGCCUGCAGGUCAGUUGUAAUAAAUCUAGGUUGUGAUGAUGGUCUUGUAAUCUGAUUUUCUGCAGUCAUACCCCGAGAAAGAAAUUCAAGAAAAAAUGACAUUUGGAAUUCUCGGGUGCCAA,1.35
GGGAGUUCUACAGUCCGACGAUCCUGAACCUCCUGUACAUGUGUUCAUGUUCCCAGCCAGCUCUGAGACCCAGGAACCAAAUAUUCCAUUUUGGCUUCUGCUAGAGCAGUCAUGGUUCCUCUCCUAAAAGCCAUGGAAUUCUCGGGUGCCAA,0.348
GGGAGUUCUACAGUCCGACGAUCUCAUCUCCUGGGGCCAGGACCUCCCUGCCCAGGCUUCAGCCUGACUCCAGUCCUUCCUUGAGUGUAUCCUGUGGCCUACAUGUGUCUUCAUCCUUCCCUAAUGCCGUCUUUGGAAUUCUCGGGUGCCAA,0.81
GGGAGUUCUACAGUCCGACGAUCCUCACUCAGCCUCCUCAGAACACAAGAUGGCCCGCAGAGGACGGCAGUUACCAGCCUCCUUCCUGCUUCUCUGCCAGGCCACAGAGAAAGCCUUGGAAGGCUGCUUGCUCUGGAAUUCUCGGGUGCCAA,0.543
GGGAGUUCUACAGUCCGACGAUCUGGGCGCAUUCUGUCUGGAGCUCCCAGAAGGAGCUGUGUGCUGCUGGAGAGGAGGCUAAUUGUUGGUUCAGACUCCUCCGCUUGGGUAAAAGACUCCCCUUAUCACUCUCUGGAAUUCUCGGGUGCCAA,0.589

# Study 4 — technique: protein-binding microarray; form: double-stranded DNA, one strand shown; sample: in vitro; tested at: 250 nM; setting: 60-bp whole probe; with: salmon DNA 0.4 mg/ml; relative to: random background probes; direction: higher = stronger binding; shared flanks, not repeated: GCCTAGCAC … GTCTTGATTCGCTTGACGCTGCTG
# Target: Interferon regulatory factor 7, full length, phosphomimetic (IRF7, Homo sapiens, UniProt Q92985, residues 1-503, S101K/S471D/S472D/S475D/S476D/S477D/S483D/S484D/S487D)
# Target sequence (chain): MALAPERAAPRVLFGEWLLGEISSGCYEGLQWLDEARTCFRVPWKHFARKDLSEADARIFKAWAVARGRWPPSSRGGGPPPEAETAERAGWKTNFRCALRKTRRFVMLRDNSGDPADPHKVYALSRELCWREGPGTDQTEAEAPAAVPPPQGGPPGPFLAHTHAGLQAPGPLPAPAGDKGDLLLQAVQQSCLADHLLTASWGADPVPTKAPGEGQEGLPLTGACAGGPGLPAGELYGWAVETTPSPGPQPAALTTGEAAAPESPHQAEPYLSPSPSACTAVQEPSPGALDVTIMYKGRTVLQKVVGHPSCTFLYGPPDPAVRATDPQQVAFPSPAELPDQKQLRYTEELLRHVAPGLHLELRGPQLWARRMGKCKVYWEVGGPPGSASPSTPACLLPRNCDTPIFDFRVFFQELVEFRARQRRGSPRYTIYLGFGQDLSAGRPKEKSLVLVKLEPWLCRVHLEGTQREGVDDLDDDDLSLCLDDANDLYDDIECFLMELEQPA
Sequence,log fluorescence [z-score]
TCACATTTGATAAATCTTACTGTGCTA,0.531
TTAGGTTTCGCTTTCGGTTAGTGCTAG,14.1
TTAGGACTGCTACTGCTTTTGTGCTAG,-0.175
GACGGGCTGGGACTGGGGACGTGCTAG,-0.73
GACGGACTGGACGCTGGGGACGTGCTA,-0.731
GGCAGGAATAAAGGAGCAGCGTGCTAG,-0.692
ACCATTTTGGTTTTCTCTATGTGCTAG,0.848
TCATTTTTTAATTGAGAACTGTGCTAG,0.519
TGTTCATTTTCAAAACTGTTGTGCTAG,2.06
TCAGTTTCCTCTTTCTTACTGTGCTAG,4.54
TCCTCTTTCTCTGCTACCCTTGTGCTA,1.66
TTAGATTTTGGGTTTCGATTAGTGCTA,6.26
GACGTACTGAGACTGGAGACGTGCTAG,-0.014
TTAGGTATCGGACTGGGTGAGTGCTAG,0.17
GACGATTTCGGGTTTCGAGATGTGCTA,5.33
GACGGTTTCGATACTGGGGACGTGCTA,8.76
TCACTTTTGGCTTTCCTACTGTGCTAG,1.15
GACGGACTGCTTGTCCTGACGTGCTAG,-0.632
TTAGGAGTGCTTTTCCTTTAGTGCTAG,0.0288

# Excerpt of the above (study 4):
Sequence,log fluorescence [z-score]
GGCAGGAATAAAGGAGCAGCGTGCTAG,-0.692
ACCATTTTGGTTTTCTCTATGTGCTAG,0.848
TCATTTTTTAATTGAGAACTGTGCTAG,0.519
TGTTCATTTTCAAAACTGTTGTGCTAG,2.06
TCAGTTTCCTCTTTCTTACTGTGCTAG,4.54
TCCTCTTTCTCTGCTACCCTTGTGCTA,1.66
